Measured values pooled from the literature.
Every numbered part comes from another study and shows a few of its results, in no order. Changes are numbered by the printed parent chain.

Block 1
Target: Histone acetyltransferase KAT6A, winged helix 2, GST fusion (KAT6A, Homo sapiens, UniProt Q92794, residues 85-181)
Method: protein binding microarray
Form: double-stranded DNA, one strand shown
Sample: in vitro
Tested at: not given
Setting: 8-mer, flanks averaged, mean of 2 arrays, mostly near background
Baseline: not given
Direction: higher = stronger binding
Quantity: E-score
Target sequence (chain): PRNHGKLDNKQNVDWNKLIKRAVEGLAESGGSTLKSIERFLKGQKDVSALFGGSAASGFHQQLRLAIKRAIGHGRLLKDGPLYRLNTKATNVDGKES
GCCTGGCA: 0.00026
ATACCCAA: -0.0462
ATGAGGCC: 0.0586
AGTCTATG: -0.217
AGCTCTAA: -0.0724
ATTTTAAA: 0.132
CTGGGTAA: 0.105
CGGAGGTC: 0.105
ATGCGGCC: 0.0528

Block 2
Target: Centromere-binding protein 1, full length, His-tagged (CBF1, Saccharomyces cerevisiae, UniProt P17106, residues 1-351)
Sequence of UniProt P17106 (whole entry, looked up): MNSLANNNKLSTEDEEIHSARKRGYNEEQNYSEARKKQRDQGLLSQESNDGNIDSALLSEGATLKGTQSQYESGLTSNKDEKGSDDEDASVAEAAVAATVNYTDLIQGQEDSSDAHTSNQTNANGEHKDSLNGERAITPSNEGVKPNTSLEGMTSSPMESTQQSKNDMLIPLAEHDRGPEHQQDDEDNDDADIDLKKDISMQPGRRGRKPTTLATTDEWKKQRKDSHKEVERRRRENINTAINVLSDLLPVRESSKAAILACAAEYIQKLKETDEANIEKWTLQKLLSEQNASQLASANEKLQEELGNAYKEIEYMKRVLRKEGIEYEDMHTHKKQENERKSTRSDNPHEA
Method: competition protein-binding microarray
Form: double-stranded DNA, one strand shown
Sample: in vitro
Tested at: 2 µM
Setting: whole 60-bp probe, lowest competitor level
With: Pho4 competitor, 0.05 µM
Direction: higher = stronger binding
Quantity: fluorescence intensity
Shared flanks, not repeated: … GTCTTGATTCGCTTGACGCTGCTG
CCGCCGCTGCTTTTGCACGTGAGTCCCGCGGATTTT: 1540 a.u.
ACATTGTCCCTATTTCACGTGGCCGAATGACACAGT: 836 a.u.
CATACCCAACCTTGGGACGTGGGTGAAGATATTTGT: 62.6 a.u.
GTCTTGTCTCATTGTCGGGTGGGTGTCCCCACTTCA: 67.9 a.u.
GACTTTTCGAGCCTTTATGACCGGATAAAAAGCCTA: 58 a.u.
CCAGCAGGAAATAGCCCCGTGCTTTTCCATCCTGAC: 143 a.u.
AGTCTCTTCGGGAAGTACATGACAGGGTGGTATATA: 76.8 a.u.
CGGGGTTAAGTTTGGTATGTGGGTGGCTTGCAGCAG: 77.3 a.u.

Block 3
Target: ABI1, truncated, D143A, DHFR fusion (Arabidopsis thaliana)
Method: DHFR PCA, deep sequencing
Sample: yeast
Setting: methotrexate growth selection, single substitutions
With: (+)-ABA 0.11 µM
Baseline: wild-type fitted maximum
Direction: higher = stronger binding
Quantity: relative binding score
Parent: PYL1, truncated, DHFR fusion (Arabidopsis thaliana); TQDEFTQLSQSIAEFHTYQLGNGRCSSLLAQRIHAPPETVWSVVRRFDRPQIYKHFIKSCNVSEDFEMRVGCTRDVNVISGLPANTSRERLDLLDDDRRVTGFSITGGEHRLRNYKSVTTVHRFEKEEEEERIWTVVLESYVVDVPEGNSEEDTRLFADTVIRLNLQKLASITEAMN
Q7H: 32.9%
A158L: 53.4%
D92N: 5.13%
L166W: 1.77%

Mixed results
PhoQ, residues 284 288 289 292 302 303 SMMNNA  fold induction (PhoP, residues 12 14 15 18 19 MHTVL (Escherichia coli, UniProt P23836); Sort-seq, refers to: YFP reporter; E. coli; PhoQ-PhoP variant library, with: 10 µM Mg2+; baseline: high Mg2+ state, higher = stronger signaling): 19.3

Excerpt of the above (block 2):
ACATTGTCCCTATTTCACGTGGCCGAATGACACAGT: 836 a.u.
CATACCCAACCTTGGGACGTGGGTGAAGATATTTGT: 62.6 a.u.
GTCTTGTCTCATTGTCGGGTGGGTGTCCCCACTTCA: 67.9 a.u.
